Published values gathered from unrelated publications.
Numbered parts are unrelated; each lists some results of a single study.

Study 1
Target: Interferon regulatory factor 5, full length, phosphomimetic (IRF5, Homo sapiens, UniProt Q13568-2, residues 1-514, S451D/S453D/S456D/S462D)
Method: protein-binding microarray
Molecule type: double-stranded DNA, one strand shown
Medium: in vitro
Tested at: 940 nM top
Setting: 60-bp whole probe
Added: salmon DNA 0.4 mg/ml
Relative to: random background probes
Reading: higher = stronger binding
Oligonucleotide	fitted relative affinity
GCCTAGCACTCATTTTTAGATATCTTACTGTGCTAGGTCTTGATTCGCTTGACGCTGCTG	0.25 z-score
GCCTAGCACGTAGGTATCGGTATCGGTTAGTGCTAGGTCTTGATTCGCTTGACGCTGCTG	10.4 z-score
GCCTAGCACGACGAACTGGGGTTTTGAGACGTGCTAGTCTTGATTCGCTTGACGCTGCTG	-0.0389 z-score

Study 2
Target: Sal-like protein 4, full length isoform B (SALL4, Homo sapiens, UniProt Q9UJQ4-2, residues 1-616)
Method: universal PBM
Molecule type: double-stranded DNA, one strand shown
Medium: in vitro
Tested at: not given
Setting: 8-mer, flanks averaged, mean of replicates
Reading: higher = stronger binding
Oligonucleotide	E-score
TCATTAAA	0.236
CCCTATGC	-0.0786
CCTTTACG	0.104
ACCCTTGC	-0.172
ACACCGTC	-0.147

Study 3
Target: Histone acetyltransferase KAT6A, both winged helices, GST fusion (KAT6A, Homo sapiens, UniProt Q92794, residues 1-181)
Method: protein binding microarray
Molecule type: double-stranded DNA, one strand shown
Medium: in vitro
Tested at: not given
Setting: 8-mer, flanks averaged, mean of 2 arrays, mostly near background
Relative to: not given
Reading: higher = stronger binding
Residues (chain): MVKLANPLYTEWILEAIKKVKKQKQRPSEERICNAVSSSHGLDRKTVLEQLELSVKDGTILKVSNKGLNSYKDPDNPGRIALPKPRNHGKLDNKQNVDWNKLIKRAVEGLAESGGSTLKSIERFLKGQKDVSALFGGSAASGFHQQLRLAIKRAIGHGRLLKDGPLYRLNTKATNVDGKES
Oligonucleotide	E-score
CCAGCATA	-0.193
CTGCTCCA	-0.229
CAATGGGG	-0.101

Mixed results
Molecule	target	assay	system	conditions	scale	quantity	value
PhoQ, residues 284 288 289 292 302 303 NLCILV	PhoP, residues 12 14 15 18 19 IQSYL (Escherichia coli, UniProt P23836)	Sort-seq, refers to: YFP reporter	E. coli	PhoQ-PhoP variant library, added: 10 µM Mg2+	relative to: high Mg2+ state, higher = stronger signaling	fold induction	5.79

Excerpt of the above (study 3):
Oligonucleotide	E-score
CAATGGGG	-0.101
